{"data": "Published values pooled from the literature", "note": "Parts stem from different laboratories: compare values within a part only. Changes are numbered by the printed parent chain.", "UniProt Q9ZTX8, sequence (whole entry, looked up)": "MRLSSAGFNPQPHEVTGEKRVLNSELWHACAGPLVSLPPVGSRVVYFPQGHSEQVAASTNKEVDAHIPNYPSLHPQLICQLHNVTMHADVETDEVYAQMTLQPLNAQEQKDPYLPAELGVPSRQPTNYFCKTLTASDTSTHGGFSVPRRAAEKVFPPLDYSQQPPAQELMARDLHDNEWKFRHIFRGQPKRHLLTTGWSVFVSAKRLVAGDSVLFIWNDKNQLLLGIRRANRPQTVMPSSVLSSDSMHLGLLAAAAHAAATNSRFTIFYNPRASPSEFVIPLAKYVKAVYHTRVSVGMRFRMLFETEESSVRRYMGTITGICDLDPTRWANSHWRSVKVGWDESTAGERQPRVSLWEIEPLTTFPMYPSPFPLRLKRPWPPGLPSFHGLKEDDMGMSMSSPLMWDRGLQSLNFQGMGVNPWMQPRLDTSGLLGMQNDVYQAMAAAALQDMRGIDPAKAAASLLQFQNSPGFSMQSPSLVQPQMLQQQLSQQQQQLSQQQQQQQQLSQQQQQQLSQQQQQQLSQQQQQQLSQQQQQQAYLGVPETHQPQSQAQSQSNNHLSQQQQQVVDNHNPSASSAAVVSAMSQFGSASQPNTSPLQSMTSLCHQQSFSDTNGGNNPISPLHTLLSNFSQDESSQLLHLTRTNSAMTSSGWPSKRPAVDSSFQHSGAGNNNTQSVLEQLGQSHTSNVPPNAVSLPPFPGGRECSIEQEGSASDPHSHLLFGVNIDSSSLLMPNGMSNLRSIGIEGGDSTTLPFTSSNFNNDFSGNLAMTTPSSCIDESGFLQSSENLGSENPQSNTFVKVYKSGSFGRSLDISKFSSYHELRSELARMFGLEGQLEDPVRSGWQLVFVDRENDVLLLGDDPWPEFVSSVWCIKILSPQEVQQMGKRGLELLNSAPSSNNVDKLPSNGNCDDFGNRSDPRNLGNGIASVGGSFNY", "UniProt Q9LQE8, sequence (whole entry, looked up)": "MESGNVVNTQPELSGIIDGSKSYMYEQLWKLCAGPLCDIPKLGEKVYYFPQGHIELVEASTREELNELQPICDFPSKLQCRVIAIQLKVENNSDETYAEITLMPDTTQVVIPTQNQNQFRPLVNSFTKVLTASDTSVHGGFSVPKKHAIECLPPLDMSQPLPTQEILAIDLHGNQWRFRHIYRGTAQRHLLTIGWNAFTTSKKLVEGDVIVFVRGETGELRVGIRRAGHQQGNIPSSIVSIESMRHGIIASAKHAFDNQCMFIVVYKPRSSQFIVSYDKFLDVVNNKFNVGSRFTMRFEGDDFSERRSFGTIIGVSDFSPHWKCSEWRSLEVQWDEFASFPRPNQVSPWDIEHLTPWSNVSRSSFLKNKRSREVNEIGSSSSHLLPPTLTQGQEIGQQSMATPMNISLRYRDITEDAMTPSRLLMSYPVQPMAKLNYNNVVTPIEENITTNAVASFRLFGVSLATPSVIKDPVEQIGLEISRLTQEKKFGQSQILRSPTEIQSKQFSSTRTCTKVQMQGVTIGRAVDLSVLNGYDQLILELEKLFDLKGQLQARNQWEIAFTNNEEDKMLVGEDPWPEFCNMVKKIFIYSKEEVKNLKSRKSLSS", "UniProt Q9FGV1, sequence (whole entry, looked up)": "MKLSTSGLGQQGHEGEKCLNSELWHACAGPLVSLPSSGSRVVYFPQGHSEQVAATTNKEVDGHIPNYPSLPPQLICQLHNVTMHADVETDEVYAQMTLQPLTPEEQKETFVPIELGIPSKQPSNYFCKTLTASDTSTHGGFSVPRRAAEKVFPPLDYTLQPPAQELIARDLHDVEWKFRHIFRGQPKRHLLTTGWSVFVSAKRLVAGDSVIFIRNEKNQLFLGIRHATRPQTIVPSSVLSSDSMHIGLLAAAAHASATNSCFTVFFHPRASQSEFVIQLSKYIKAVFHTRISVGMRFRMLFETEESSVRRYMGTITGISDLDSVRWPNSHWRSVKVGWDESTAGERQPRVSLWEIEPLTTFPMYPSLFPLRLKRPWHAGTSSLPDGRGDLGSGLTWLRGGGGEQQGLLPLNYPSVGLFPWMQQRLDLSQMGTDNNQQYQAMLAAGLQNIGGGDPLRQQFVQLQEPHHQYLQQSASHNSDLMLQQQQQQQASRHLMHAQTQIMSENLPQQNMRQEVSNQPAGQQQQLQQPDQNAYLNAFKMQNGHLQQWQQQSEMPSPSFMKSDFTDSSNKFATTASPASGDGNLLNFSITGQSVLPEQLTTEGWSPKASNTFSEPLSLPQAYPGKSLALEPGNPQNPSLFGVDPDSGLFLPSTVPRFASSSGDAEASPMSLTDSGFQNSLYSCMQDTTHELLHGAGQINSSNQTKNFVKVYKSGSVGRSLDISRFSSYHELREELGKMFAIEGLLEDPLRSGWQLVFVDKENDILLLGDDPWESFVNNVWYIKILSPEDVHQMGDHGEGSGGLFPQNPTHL", "UniProt Q94JM3, sequence (whole entry, looked up)": "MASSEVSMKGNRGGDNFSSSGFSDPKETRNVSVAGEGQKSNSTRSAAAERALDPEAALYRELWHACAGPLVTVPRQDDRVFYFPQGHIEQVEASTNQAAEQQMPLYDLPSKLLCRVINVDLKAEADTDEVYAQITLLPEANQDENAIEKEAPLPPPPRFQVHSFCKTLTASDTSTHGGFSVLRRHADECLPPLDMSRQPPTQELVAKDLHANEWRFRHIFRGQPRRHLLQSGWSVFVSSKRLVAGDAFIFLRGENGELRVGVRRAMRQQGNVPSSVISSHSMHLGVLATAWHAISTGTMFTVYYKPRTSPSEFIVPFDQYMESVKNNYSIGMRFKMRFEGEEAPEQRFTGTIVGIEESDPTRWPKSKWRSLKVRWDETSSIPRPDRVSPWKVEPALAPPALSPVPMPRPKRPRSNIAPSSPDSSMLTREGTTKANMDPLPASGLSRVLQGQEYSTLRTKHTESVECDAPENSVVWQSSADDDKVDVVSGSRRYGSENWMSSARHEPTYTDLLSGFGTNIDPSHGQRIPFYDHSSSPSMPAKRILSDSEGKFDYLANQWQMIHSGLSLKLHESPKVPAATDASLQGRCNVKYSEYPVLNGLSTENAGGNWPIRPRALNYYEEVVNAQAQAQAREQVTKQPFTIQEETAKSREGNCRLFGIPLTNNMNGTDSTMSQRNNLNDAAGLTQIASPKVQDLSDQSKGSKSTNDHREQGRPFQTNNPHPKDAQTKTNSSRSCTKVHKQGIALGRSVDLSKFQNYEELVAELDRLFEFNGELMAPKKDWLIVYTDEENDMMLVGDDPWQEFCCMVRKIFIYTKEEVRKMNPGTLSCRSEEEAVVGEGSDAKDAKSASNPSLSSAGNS"}
{"data": "Set 1", "target": "ABI1, truncated, D143A, DHFR fusion (Arabidopsis thaliana)", "technique": "DHFR PCA, deep sequencing", "medium": "yeast", "notes": "methotrexate growth selection, single substitutions", "with": "(+)-ABA 17 µM", "relative to": "wild-type fitted maximum", "direction": "higher = stronger binding", "starting sequence": "PYL1, truncated, DHFR fusion (Arabidopsis thaliana); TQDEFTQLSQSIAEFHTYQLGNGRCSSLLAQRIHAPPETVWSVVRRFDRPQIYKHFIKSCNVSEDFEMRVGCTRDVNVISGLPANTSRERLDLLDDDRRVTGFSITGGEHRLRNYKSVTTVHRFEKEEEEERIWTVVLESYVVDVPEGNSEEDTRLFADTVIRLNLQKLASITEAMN; partner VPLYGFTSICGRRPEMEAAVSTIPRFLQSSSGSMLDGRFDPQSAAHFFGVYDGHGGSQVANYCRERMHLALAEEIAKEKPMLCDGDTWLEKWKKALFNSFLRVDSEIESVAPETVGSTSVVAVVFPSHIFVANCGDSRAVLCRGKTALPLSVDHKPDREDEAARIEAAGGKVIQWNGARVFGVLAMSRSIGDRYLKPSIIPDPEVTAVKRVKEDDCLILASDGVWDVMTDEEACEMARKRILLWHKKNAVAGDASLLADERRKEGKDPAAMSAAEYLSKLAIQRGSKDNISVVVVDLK"}
{"Change": "E14V", "relative binding score [%]": 49.9}
{"Change": "S117H", "relative binding score [%]": -4.57}
{"Change": "E109C", "relative binding score [%]": 63.2}
{"Change": "L164Y", "relative binding score [%]": 86.5}
{"Change": "R45S", "relative binding score [%]": 46.6}
{"Change": "G21V", "relative binding score [%]": 82.5}
{"Change": "Y115G", "relative binding score [%]": -1.67}
{"Change": "R132H", "relative binding score [%]": 87.7}
{"Change": "R98Y", "relative binding score [%]": 39.8}
{"Change": "S42Q", "relative binding score [%]": 80.6}
{"Change": "S9H", "relative binding score [%]": 76}
{"Change": "E139H", "relative binding score [%]": 54.8}
{"Change": "Y115M", "relative binding score [%]": 8.39}
{"data": "Set 2", "target": "UBE2E1 UBC core domain (UniProt P51965)", "technique": "yeast two-hybrid", "medium": "yeast", "notes": "mostly zero background", "relative to": "not given", "direction": "higher = stronger interaction", "B1": "SH3RF2 RING domain (UniProt Q8TEC5); chain DDLTLLDLLECPVCFEKLDVTAKVLPCQHTFCKPCLQRVFKAHKELRCPECRTPVFSNIEAL", "B2": "TRIM4 RING domain (UniProt Q9C037); chain EAEDIQEELTCPICLDYFQDPVSIECGHNFCRGCLHRNWAPGGGPFPCPECRHPSAPAALRP", "B3": "MKRN1 RING domain (UniProt Q9UHC7); chain FAVQRSKDMVCGICMEVVYEKANPSERRFGILSNCNHTYCLKCIRKWRSAKQFESKIIKSCPECRITSNFVIPSE", "B4": "NEURL1 RING domain (UniProt O76050); chain VTPGLGQWSDECTICYEHAVDTVIYTCGHMCLCYACGLRLKKALHACCPICRRPIKDIIKT", "B5": "TRIML1 RING domain (UniProt Q8N9V2); chain LMENLREELTCFICLDYFSSPVTTECGHSFCLVCLLRSWEEHNTPLSCPECWRTLEGPHFQS", "B6": "TRIM13 RING domain (UniProt O60858); chain MELLEEDLTCPICCSLFDDPRVLPCSHNFCKKCLEGILEGSVRNSLWRPAPFKCPTCRKETSATGINS", "B7": "RNF111 RING domain (UniProt Q6ZNA4); chain EGTEEDTEEKCTICLSILEEGEDVRRLPCMHLFHQVCVDQWLITNKKCPICRVDIEAQLPSE", "UniProt P51965, sequence (whole entry, looked up)": "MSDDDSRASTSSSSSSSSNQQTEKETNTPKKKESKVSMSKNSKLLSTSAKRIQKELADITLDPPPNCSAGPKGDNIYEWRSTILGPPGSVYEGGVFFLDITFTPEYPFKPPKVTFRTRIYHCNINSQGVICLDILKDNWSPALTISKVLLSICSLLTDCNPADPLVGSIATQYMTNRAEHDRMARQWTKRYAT"}
{"Molecule": "B1 (SH3RF2 RING domain)", "lacZ reporter activity": 0}
{"Molecule": "VEPSEENSKDCVVCQNGTVNWVLLPCRHTCLCDGCVKYFQQCPMCRQFVQESFALC (CGRRF1 RING domain (UniProt Q99675))", "lacZ reporter activity": 0}
{"Molecule": "B2 (TRIM4 RING domain)", "lacZ reporter activity": 0}
{"Molecule": "B3 (MKRN1 RING domain)", "lacZ reporter activity": 0}
{"Molecule": "B4 (NEURL1 RING domain)", "lacZ reporter activity": 0}
{"Molecule": "GAAPGPEAAECLVCSELALLVLFSPCQHRTVCEECARRMKKCIRCQVVVSKKLRPD (MIB2 RING domain (UniProt Q96AX9))", "lacZ reporter activity": 0}
{"Molecule": "B5 (TRIML1 RING domain)", "lacZ reporter activity": 0}
{"Molecule": "PAELEVQASECVVCLEREAQMIFLNCGHVCCCQQCCQPLRTCPLCRQDIAQRLRIY (LRSAM1 RING domain (UniProt Q6UWE0))", "lacZ reporter activity": 0}
{"Molecule": "B6 (TRIM13 RING domain)", "lacZ reporter activity": 0}
{"Molecule": "B7 (RNF111 RING domain)", "lacZ reporter activity": 12900}
{"Molecule": "DHGAVGQEMCCPICCSEYVKGEVATELPCHHYFHKPCVSIWLQKSGTCPVCRCMFPPPL (PJA1 RING domain (UniProt Q8NG27))", "lacZ reporter activity": 0}
{"data": "Set 3", "target": "Histone acetyltransferase KAT6A, winged helix 2, GST fusion (KAT6A, Homo sapiens, UniProt Q92794, residues 85-181)", "technique": "protein binding microarray", "form": "double-stranded DNA, one strand shown", "medium": "in vitro", "tested at": "not given", "notes": "8-mer, flanks averaged, mean of 2 arrays, mostly near background", "relative to": "not given", "direction": "higher = stronger binding", "Residues (chain)": "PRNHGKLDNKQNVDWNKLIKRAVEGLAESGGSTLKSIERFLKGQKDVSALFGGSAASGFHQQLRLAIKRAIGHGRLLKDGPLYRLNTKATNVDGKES"}
{"Oligonucleotide": "CCTTACTA", "E-score": -0.0171}
{"Oligonucleotide": "AGAGAAGA", "E-score": 0.0672}
{"Oligonucleotide": "CCTTACAC", "E-score": -0.124}
{"Oligonucleotide": "AGGGGGGG", "E-score": -0.0921}
{"Oligonucleotide": "GCATGAAA", "E-score": -0.0034}
{"Oligonucleotide": "GGGTGAAC", "E-score": 0.164}
{"Oligonucleotide": "ATGTCGCG", "E-score": -0.0935}
{"Oligonucleotide": "CACTCTAC", "E-score": -0.0545}
{"Oligonucleotide": "ACGGGTAT", "E-score": -0.0396}
{"Oligonucleotide": "ATTACTTG", "E-score": 0.0542}
{"Oligonucleotide": "AACAGCCT", "E-score": -0.0724}
{"Oligonucleotide": "ACAATATA", "E-score": -0.0264}
{"Oligonucleotide": "AGAGTGCA", "E-score": -0.194}
{"Oligonucleotide": "AGAAGGGA", "E-score": -0.129}
{"Oligonucleotide": "CGGCTTGA", "E-score": 0.117}
{"Oligonucleotide": "CTGGAAGA", "E-score": 0.132}
{"Oligonucleotide": "TGTCGACA", "E-score": -0.17}
{"Oligonucleotide": "AGTCGCGA", "E-score": 0.11}
{"Oligonucleotide": "ACCATTGG", "E-score": 0.0244}
{"data": "Set 4", "target": "CCNB2, cyclin fold, Cln2 fusion (human)", "technique": "yeast growth competition, sequencing", "medium": "yeast", "notes": "weak parent motif", "relative to": "not given", "direction": "higher = stronger binding", "starting sequence": "E2F8 docking peptide (human); FVPQRKLEVSTED; partner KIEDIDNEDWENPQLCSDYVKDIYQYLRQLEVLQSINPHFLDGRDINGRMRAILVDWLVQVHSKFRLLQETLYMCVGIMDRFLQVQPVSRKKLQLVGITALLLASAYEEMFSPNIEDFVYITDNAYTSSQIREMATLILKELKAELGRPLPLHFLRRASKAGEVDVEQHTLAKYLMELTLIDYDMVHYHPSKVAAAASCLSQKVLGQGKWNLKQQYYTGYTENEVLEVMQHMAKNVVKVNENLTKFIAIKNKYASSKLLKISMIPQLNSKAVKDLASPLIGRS"}
{"Change": "FVPQRKLEFSTED [V9F]", "normalised enrichment score": -0.0221}
{"Change": "FVPQAKLEVSTED [R5A]", "normalised enrichment score": -0.348}
{"Change": "FVPQAKAEVSTED [R5A L7A]", "normalised enrichment score": -0.301}
{"Change": "FVPQKKLEFSTED [R5K V9F]", "normalised enrichment score": 0.0151}
{"Change": "FVPQRKLELSTED [V9L]", "normalised enrichment score": -0.33}
{"Change": "FVPQRKLEASTED [V9A]", "normalised enrichment score": -0.149}
{"Change": "FVPQRKLAVSTED [E8A]", "normalised enrichment score": -0.186}
{"Change": "FVPQRKLEVATED [S10A]", "normalised enrichment score": -0.357}
{"Change": "FVPQRKAEVSTED [L7A]", "normalised enrichment score": 0.00322}
{"Change": "FVPQRKLEVSTEA [D13A]", "normalised enrichment score": -0.211}
{"Change": "FVPQRKLEVSAED [T11A]", "normalised enrichment score": -0.0666}
{"data": "Set 5", "Molecule": "B8 (IAA12)", "technique": "two-hybrid", "relative to": "out of 4 tests", "direction": "higher = firmer interaction", "B8": "IAA12 (Arabidopsis thaliana, UniProt Q38830); chain MRGVSELEVGKSNLPAESELELGLGLSLGGGAWKERGRILTAKDFPSVGSKRSAESSSHQGASPPRSSQVVGWPPIGLHRMNSLVNNQAMKAARAEEGDGEKKVVKNDELKDVSMKVNPKVQGLGFVKVNMDGVGIGRKVDMRAHSSYENLAQTLEEMFFGMTGTTCREKVKPLRLLDGSSDFVLTYEDKEGDWMLVGDVPWRMFINSVKRLRIMGTSEASGLAPRRQEQKDRQRNNPV"}
{"partner": "ARF8 699-811 (Arabidopsis thaliana, UniProt Q9FGV1)", "positive tests": 4}
{"partner": "ARF2 727-859 (Arabidopsis thaliana, UniProt Q94JM3)", "positive tests": 0}
{"partner": "ARF14 497-605 (Arabidopsis thaliana, UniProt Q9LQE8)", "positive tests": 0}
{"partner": "ARF6 790-935 (Arabidopsis thaliana, UniProt Q9ZTX8)", "positive tests": 1}
{"note": "Repeated from above (set 1):"}
{"Change": "Y115G", "relative binding score [%]": -1.67}
{"Change": "R45S", "relative binding score [%]": 46.6}
{"Change": "G21V", "relative binding score [%]": 82.5}
{"Change": "Y115M", "relative binding score [%]": 8.39}
{"Change": "E139H", "relative binding score [%]": 54.8}
{"Change": "E14V", "relative binding score [%]": 49.9}
{"Change": "S42Q", "relative binding score [%]": 80.6}
{"Change": "S117H", "relative binding score [%]": -4.57}
{"Change": "S9H", "relative binding score [%]": 76}
